Assay results of several laboratories.
Numbers after ± are the reported error.

`CC1=C(C2=C(C)C(=O)c3c(cc(O)c(O)c3Cc3ccccc3)C2=O)C(=O)c2cc(O)c(O)c(Cc3ccccc3)c2C1=O` (single isomer, unassigned) has a maximal activity of roughly 82% (spleen shrinkage; B6 Bcl-2-transgenic mice; ip, 20 µmol/kg; baseline: maximum 50%).
`CCCCCCCCN(CCC(=O)Nc1ccccc1)C(=O)c1ccccn1`: thymus size “increased” (Lmna G609G/G609G mouse, 3-month-old; intraperitoneal, 40 mg/kg; baseline: untreated).
`COc1c2c(cc3oc(COC4OC(CO)C(O)C(O)C4O)cc(=O)c13)OC(C(C)(C)O)C2` (stereo not shown) — result for “hot plate latency”: 8.29 ± 1.72 s (analgesic effect; Kunming mouse, female; oral, 1 mg/kg, 0 h, 55 °C, before dosing, 30 s cut-off).
For `Cc1ccccc1-c1cc(N2CCN(C(=O)CCC(=O)O)CC2)ccc1N(C)C(=O)C(C)(C)c1cc(C(F)(F)F)cc(C(F)(F)F)c1`, “duration of inhibition” read no less than 8 h (mechanical allodynia, antagonist, von Frey test; hNK1R-407 mice; intrathecal, 5 µL, 100 nM, added: capsaicin).
For `CCCC[C@H](NC(=O)[C@@H](NC(=O)[C@H](CC(=O)O)NC(=O)[C@H](CCC(N)=O)NC(=O)[C@H](CC(C)C)NC(=O)[C@H](CC(C)C)NC(=O)[C@H](CCCN)NC(=O)[C@H](CCCNC(=N)N)NC(=O)[C@H](C)NC(=O)[C@H](CO)NC(=O)[C@H](CC(C)C)NC(=O)[C@H](CCC(N)=O)NC(=O)[C@H](CC)NC(=O)[C@H](CC(C)C)NC(=O)[C@@H](NC(=O)[C@H](CCCN)NC(=O)[C@H](CCCNC(=N)N)NC(=O)[C@H](Cc1ccc(O)cc1)NC(=O)[C@H](CO)NC(=O)[C@H](CCC(N)=O)NC(=O)[C@@H](NC(=O)[C@H](Cc1ccccc1)NC(=O)[C@@H](NC(=O)[C@H](C)NC(=O)[C@H](CC(=O)O)NC(=O)[C@@H](C)NC(=O)[C@H](Cc1ccc(O)cc1)N(C)C(C)=O)[C@@H](C)CC)[C@@H](C)O)C(C)C)[C@@H](C)CC)C(=O)N[C@@H](CC(=O)O)C(=O)NCCCCNC(=N)N`, the relative potency was 18.8 (GH release; male rat, serum; subcutaneous, dose not given, 15 min; baseline: GHRH(1-29)NH2).
`COc1cccc(OCCN2CCC[C@H](CN3CCc4cc(OC)c(OC)cc4CC3=O)C2)c1`: “burst firing (%SWB)” “no effect” (VTA dopamine neurons, stress-naive female mice; intraperitoneal, 1 mg/kg; baseline: baseline).
`COc1ccc2c(c1OC)C(C(Cl)(Cl)Cl)N1CCc3cc4c(cc3C1=C2)OCO4` (stereo not shown) gave a TBARS of 2.9 ± 0.74 nmol MDA/mg protein (rat, STZ-induced diabetic, liver; oral, 12 mg/kg, day 28).
With `O=c1cc(-c2ccc(O)cc2)oc2c1c(O)cc1oc3cc(O)c(O)cc3c12` the EC50 was 2990 µM (ABTS scavenging, absorbance).
`C[C@@H](O)[C@@H]1NC(=O)[C@H](CCCCN)NC(=O)[C@@H](Cc2ccc(NC(N)=O)cc2)NC(=O)[C@H](Cc2ccc(NC(=O)[C@@H]3CC(=O)NC(=O)N3)cc2)NC(=O)[C@H](NC(=O)[C@H](Cc2ccc(Cl)cc2)NC(=O)CN2CCN(CC(=O)O)CCN(CC(=O)O)CCN(CC(=O)O)CC2)CSSC[C@@H](C(=O)N[C@H](Cc2ccc(O)cc2)C(N)=O)NC1=O` [gallium-68 labelled] has an SUVmax of 25 ± 22 (PET/CT; human neuroendocrine tumour patients, liver lesions; 60 min).
`CCCC[C@H](NC(=O)[C@@H](NC(=O)[C@H](CC(=O)O)NC(=O)[C@H](CCC(N)=O)NC(=O)[C@H](CC(C)C)NC(=O)[C@H](CC(C)C)NC(=O)[C@H](CCCN)NC(=O)[C@H](CCCNC(=N)N)NC(=O)[C@H](C)NC(=O)[C@H](CO)NC(=O)[C@H](CC(C)C)NC(=O)[C@H](CCC(N)=O)NC(=O)[C@H](CC)NC(=O)[C@H](CC(C)C)NC(=O)[C@@H](NC(=O)[C@H](CCCN)NC(=O)[C@H](CCCNC(=N)N)NC(=O)[C@H](Cc1ccc(O)cc1)NC(=O)[C@H](CO)NC(=O)[C@H](CC(N)=O)NC(=O)[C@@H](NC(=O)[C@H](Cc1ccccc1)NC(=O)[C@@H](NC(=O)[C@H](C)NC(=O)[C@H](CC(=O)O)NC(=O)[C@@H](C)NC(=O)[C@H](Cc1ccc(O)cc1)NC)[C@@H](C)CC)[C@@H](C)O)C(C)C)[C@@H](C)CC)C(=O)N[C@@H](CC(=O)O)C(=O)N[C@@H](CCCNC(=N)N)C(=O)NCC` gave a relative potency of 1 to 4 fold (GH release; rat, male, serum; subcutaneous, dose not given, 15 and 30 min; baseline: reference GHRH agonist JI-38).

Repeated from above:
With `O=c1cc(-c2ccc(O)cc2)oc2c1c(O)cc1oc3cc(O)c(O)cc3c12` the EC50 was 2990 µM (ABTS scavenging, absorbance).
